Published values gathered from unrelated publications.
Parts stem from different laboratories: compare values within a part only.
Sequence of UniProt Q9UHD2 (whole entry, looked up): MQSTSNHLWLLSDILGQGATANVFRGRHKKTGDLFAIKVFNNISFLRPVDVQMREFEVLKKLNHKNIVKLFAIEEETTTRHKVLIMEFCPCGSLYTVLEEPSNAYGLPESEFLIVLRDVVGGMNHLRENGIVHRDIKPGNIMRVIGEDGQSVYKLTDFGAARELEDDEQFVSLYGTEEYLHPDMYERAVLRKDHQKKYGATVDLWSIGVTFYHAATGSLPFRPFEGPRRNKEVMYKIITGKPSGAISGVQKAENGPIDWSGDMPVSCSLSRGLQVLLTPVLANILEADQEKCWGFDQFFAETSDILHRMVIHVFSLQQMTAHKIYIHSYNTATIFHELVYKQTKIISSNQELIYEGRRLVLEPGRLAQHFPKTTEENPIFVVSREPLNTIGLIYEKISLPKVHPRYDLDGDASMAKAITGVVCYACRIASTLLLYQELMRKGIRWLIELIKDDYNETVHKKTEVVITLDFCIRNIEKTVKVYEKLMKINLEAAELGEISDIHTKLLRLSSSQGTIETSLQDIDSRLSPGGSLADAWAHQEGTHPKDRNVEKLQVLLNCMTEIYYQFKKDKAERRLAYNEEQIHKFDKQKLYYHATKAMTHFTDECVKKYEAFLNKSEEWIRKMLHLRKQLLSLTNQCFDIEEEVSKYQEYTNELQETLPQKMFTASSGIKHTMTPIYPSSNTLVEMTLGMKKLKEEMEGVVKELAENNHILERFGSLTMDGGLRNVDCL
Sequence of UniProt P49137 (whole entry, looked up): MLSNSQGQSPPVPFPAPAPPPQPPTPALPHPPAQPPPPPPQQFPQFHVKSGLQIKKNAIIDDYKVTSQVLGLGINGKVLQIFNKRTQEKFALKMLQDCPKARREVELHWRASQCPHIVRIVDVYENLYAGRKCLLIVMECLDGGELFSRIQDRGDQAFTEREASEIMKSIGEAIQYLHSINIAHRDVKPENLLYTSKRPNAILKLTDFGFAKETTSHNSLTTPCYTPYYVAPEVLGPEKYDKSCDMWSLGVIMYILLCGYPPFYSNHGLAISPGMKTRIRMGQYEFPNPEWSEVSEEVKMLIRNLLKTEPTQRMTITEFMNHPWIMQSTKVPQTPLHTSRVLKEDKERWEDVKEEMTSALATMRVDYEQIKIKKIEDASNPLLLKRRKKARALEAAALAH
Sequence of UniProt P31152 (whole entry, looked up): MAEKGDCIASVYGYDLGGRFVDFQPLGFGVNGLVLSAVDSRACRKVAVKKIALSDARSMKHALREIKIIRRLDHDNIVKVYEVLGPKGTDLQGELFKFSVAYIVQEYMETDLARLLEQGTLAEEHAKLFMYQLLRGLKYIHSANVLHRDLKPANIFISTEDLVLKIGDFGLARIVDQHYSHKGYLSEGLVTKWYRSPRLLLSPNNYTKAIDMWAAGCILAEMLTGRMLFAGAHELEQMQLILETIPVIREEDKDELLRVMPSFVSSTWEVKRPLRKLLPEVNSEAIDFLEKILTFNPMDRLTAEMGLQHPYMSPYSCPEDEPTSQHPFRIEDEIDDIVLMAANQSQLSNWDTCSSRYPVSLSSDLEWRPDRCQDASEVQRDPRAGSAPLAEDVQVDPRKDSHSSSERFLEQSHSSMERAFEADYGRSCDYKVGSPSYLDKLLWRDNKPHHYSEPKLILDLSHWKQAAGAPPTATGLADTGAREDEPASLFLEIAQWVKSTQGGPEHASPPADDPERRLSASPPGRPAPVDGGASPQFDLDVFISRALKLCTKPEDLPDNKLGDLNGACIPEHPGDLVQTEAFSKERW
Sequence of UniProt Q8IU85 (whole entry, looked up): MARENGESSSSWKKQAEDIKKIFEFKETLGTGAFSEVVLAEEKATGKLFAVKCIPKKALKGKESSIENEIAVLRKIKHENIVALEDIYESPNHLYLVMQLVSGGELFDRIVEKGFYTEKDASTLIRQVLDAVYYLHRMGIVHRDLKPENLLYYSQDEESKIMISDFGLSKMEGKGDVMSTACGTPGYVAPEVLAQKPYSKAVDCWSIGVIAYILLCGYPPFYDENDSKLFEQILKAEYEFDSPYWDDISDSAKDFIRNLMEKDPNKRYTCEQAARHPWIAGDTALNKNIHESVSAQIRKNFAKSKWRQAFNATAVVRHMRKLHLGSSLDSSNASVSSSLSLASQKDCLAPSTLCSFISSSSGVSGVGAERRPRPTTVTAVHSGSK
Sequence of UniProt P47900 (whole entry, looked up): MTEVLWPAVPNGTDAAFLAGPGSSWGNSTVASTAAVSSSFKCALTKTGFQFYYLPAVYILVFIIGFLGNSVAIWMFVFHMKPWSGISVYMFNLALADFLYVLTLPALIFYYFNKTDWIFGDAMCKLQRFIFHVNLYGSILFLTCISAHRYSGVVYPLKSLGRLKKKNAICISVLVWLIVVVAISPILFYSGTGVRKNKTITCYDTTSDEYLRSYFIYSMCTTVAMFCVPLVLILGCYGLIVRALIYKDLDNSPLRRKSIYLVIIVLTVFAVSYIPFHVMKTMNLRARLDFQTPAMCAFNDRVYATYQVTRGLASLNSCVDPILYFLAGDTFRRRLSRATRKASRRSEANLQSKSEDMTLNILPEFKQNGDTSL
Sequence of UniProt Q04912 (whole entry, looked up): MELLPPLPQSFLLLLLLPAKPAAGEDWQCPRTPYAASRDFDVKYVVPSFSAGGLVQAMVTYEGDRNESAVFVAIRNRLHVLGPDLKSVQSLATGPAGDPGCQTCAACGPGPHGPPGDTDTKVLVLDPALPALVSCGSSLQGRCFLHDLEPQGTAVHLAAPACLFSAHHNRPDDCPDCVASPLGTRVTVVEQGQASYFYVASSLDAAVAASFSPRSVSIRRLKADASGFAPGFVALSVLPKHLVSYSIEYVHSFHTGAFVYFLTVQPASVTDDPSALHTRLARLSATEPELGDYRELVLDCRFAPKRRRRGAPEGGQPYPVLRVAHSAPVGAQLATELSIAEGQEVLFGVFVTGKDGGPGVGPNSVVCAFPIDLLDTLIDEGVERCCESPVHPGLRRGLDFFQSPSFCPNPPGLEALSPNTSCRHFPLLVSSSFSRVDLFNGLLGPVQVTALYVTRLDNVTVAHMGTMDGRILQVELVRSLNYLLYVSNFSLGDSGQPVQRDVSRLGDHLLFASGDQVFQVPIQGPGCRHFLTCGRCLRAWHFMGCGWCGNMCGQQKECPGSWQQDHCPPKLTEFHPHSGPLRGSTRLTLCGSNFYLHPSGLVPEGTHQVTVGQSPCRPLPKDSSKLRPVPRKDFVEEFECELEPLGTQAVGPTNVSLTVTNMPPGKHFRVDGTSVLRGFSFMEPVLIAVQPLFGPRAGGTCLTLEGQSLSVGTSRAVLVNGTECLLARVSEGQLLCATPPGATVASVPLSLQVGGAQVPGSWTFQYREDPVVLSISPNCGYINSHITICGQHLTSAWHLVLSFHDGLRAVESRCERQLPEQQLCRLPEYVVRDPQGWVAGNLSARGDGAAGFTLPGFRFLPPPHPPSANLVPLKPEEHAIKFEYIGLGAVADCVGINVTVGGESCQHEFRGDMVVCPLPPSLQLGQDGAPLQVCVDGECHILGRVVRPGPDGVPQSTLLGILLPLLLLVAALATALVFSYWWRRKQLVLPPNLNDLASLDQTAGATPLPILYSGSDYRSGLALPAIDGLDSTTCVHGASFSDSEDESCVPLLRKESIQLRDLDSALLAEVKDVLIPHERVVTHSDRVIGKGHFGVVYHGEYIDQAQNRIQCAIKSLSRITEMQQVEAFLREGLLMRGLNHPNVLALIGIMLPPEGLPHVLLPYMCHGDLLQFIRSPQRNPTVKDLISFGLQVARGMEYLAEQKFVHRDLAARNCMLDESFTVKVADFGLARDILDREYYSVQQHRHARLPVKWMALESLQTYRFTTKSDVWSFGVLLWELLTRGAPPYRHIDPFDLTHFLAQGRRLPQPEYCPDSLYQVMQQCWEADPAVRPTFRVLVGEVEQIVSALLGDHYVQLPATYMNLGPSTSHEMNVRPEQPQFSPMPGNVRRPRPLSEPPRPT
Sequence of UniProt P30291 (whole entry, looked up): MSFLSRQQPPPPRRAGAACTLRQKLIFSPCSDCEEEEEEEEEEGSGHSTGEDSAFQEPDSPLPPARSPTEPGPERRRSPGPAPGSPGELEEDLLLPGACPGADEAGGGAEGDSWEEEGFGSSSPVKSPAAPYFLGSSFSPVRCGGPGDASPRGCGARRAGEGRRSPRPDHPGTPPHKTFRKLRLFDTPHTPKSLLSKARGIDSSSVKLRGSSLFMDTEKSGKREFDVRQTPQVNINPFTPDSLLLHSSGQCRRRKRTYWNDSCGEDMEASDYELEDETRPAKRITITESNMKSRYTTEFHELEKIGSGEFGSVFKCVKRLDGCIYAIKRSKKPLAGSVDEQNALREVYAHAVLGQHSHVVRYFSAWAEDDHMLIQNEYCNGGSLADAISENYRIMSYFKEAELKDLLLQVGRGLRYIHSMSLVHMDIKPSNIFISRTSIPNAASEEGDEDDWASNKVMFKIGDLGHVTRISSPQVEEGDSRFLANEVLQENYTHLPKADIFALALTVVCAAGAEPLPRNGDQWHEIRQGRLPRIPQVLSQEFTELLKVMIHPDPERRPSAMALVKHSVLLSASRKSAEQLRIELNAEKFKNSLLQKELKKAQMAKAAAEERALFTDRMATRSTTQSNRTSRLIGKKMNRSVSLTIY

Series 1
Cell line: A-375
Concentration: 100 µM
Time: 18 h
SMILES | viability [%]
COc1cc(C)c(/C=C/C(C)=C/C=C/C(C)=C/C(=O)O)c(C)c1C | 79.2
Cc1cn([C@@H]2C[C@@H](O)[C@H](CO)O2)c(=O)[nH]c1=O | 110
O=C(O)COC(=O)Cc1ccccc1Nc1c(Cl)cccc1Cl | 92.1
CO[C@H]1/C=C/O[C@@]2(C)Oc3c(C)c(O)c4c(O)c(c5c(nc6cc(C)ccn65)c4c3C2=O)NC(=O)/C(C)=C\C=C\[C@H](C)[C@H](O)[C@@H](C)[C@@H](O)[C@@H](C)[C@H](OC(C)=O)[C@@H]1C | 31.5

Series 2
Compound: CC(C)S(=O)(=O)c1ccc2nccc(Nc3ccc4sc(C5CCCC5)nc4c3)c2c1.Cl
Read-out: kinase activity
Mode: inhibitor
Concentration: 1 µM
target | remaining activity [%]
Vascular endothelial growth factor receptor 2 (KDR, Homo sapiens, UniProt P35968) | 93
Serine/threonine-protein kinase BRSK1 (BRSK1, Homo sapiens, UniProt Q8TDC3) | 89
Calcium/calmodulin-dependent protein kinase type 1D (CAMK1D, Homo sapiens, UniProt Q8IU85) | 88

Series 3
Species: human
Sample: microsomes or S9
Concentration: 2 µM
Time: 0.5 h
Compound | remaining compound [%]
COc1cc(OC)nc(OC(C(=O)N2CCOCC2)C(C)C)n1 (stereo not shown) | 97.4
CCOC(=O)C(Cc1ccccc1)(NC(C)=O)C(=O)OCC | > 99
CC(Cc1ccsc1)NC(=O)c1cccc2c1OC(C)C(=O)N2 (stereo not shown) | 11
Cc1nn(C)c(C)c1CN(C)S(=O)(=O)c1c(C)n[nH]c1C | 40.8

Series 4
Structure (SMILES): CC(C)N(CCC(=O)c1ccc2ccccc2c1)Cc1ccccc1
Read-out: enzyme activity
Mode: inhibitor
Concentration: 0.5 µM
Baseline: control
target | remaining activity
Serine/threonine-protein kinase Nek6 (NEK6, Homo sapiens, UniProt Q9HC98) | 109%
Wee1-like protein kinase (WEE1, Homo sapiens, UniProt P30291) | 92.1%
Serine/threonine-protein kinase TBK1 (TBK1, Homo sapiens, UniProt Q9UHD2) | 92.4%
Serine/threonine-protein kinase ULK2 (ULK2, Homo sapiens, UniProt Q8IYT8) | 113%
Tyrosine-protein kinase FRK (FRK, Homo sapiens, UniProt P42685) | 95.8%
MAP kinase-activated protein kinase 2 (MAPKAPK2, Homo sapiens, UniProt P49137) | 99%
Dual specificity mitogen-activated protein kinase kinase 2 (MAP2K2, Homo sapiens, UniProt P36507) | 92.5%
Tyrosine-protein kinase JAK3 (JAK3, Homo sapiens, UniProt P52333) | 80.9%
Tyrosine-protein kinase Mer (MERTK, Homo sapiens, UniProt Q12866) | 106%
Serine/threonine-protein kinase A-Raf (ARAF, Homo sapiens, UniProt P10398) | 104%
Rhodopsin kinase GRK7 (GRK7, Homo sapiens, UniProt Q8WTQ7) | 121%
Angiopoietin-1 receptor (TEK, Homo sapiens, UniProt Q02763) | 96.3%
Mitogen-activated protein kinase kinase kinase 5 (MAP3K5, Homo sapiens, UniProt Q99683) | 103%
Serine/threonine-protein kinase Nek1 (NEK1, Homo sapiens, UniProt Q96PY6) | 81.9%
Fibroblast growth factor receptor 1 (FGFR1, Homo sapiens, UniProt P11362) | 99.5%
Glycogen synthase kinase-3 beta (GSK3B, Homo sapiens, UniProt P49841) | 94.9%
Serine/threonine-protein kinase ULK3 (ULK3, Homo sapiens, UniProt Q6PHR2) | 95.8%
Casein kinase I isoform gamma-3 (CSNK1G3, Homo sapiens, UniProt Q9Y6M4) | 99%
Fibroblast growth factor receptor 3 (FGFR3, Homo sapiens, UniProt P22607) | 99.8%
Mitogen-activated protein kinase 3 (MAPK3, Homo sapiens, UniProt P27361) | 98.5%
Casein kinase I isoform gamma-2 (CSNK1G2, Homo sapiens, UniProt P78368) | 104%
Serine/threonine-protein kinase TAO2 (TAOK2, Homo sapiens, UniProt Q9UL54) | 96.1%
Mitogen-activated protein kinase kinase kinase 14 (MAP3K14, Homo sapiens, UniProt Q99558) | 117%
Macrophage-stimulating protein receptor (MST1R, Homo sapiens, UniProt Q04912) | 92.6%
Activin receptor type-1B (ACVR1B, Homo sapiens, UniProt P36896) | 99.5%

Series 5
Target: Calcium/calmodulin-dependent protein kinase type II subunit alpha (CAMK2A, Homo sapiens, UniProt Q9UQM7)
Sequence of UniProt Q9UQM7 (whole entry, looked up): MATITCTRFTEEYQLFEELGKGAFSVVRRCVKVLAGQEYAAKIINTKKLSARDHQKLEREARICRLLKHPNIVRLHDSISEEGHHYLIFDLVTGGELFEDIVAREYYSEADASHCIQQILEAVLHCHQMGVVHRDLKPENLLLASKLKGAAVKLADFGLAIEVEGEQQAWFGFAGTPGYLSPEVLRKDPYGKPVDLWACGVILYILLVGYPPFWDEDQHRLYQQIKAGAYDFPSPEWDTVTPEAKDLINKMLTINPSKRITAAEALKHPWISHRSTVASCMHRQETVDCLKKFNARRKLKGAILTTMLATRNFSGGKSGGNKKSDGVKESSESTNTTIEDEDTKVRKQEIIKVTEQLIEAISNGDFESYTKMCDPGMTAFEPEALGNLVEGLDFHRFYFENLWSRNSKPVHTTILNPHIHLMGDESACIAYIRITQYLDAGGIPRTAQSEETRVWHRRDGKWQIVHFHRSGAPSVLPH
Read-out: enzyme activity
Mode: inhibitor
Concentration: 10 µM
Compound | inhibition [%]
COC(=O)Nc1nc2cc(C(=O)c3ccc(F)cc3)ccc2[nH]1 | -8
CC(C)C[C@H](NC(=O)CNC(=O)c1cc(Cl)ccc1Cl)B(O)O | -5
COc1cc(C(C)=O)ccc1O[C@@H]1O[C@H](CO)[C@@H](O)[C@H](O)[C@H]1O | -31
C[N+](C)(C)[C@@H](Cc1c[nH]c2ccccc12)C(=O)[O-] | 17

Series 6
Structure (SMILES): N=C(N)NC(=O)c1cnn(-c2cccc3ncccc23)c1C1CC1
Read-out: β-arrestin recruitment
Mode: agonist
Method: PRESTO-Tango
Concentration: 10 µM
Baseline: untreated
target | fold over basal
Type-2 angiotensin II receptor (AGTR2, Homo sapiens, UniProt P50052) | 1.59
P2Y purinoceptor 14 (P2RY14, Homo sapiens, UniProt Q15391) | 1.11
P2Y purinoceptor 1 (P2RY1, Homo sapiens, UniProt P47900) | 0.67
C-X-C chemokine receptor type 2 (CXCR2, Homo sapiens, UniProt P25025) | 1.12
G-protein coupled receptor 35 (GPR35, Homo sapiens, UniProt Q9HC97) | 1.31
Adhesion G protein-coupled receptor F4 (ADGRF4, Homo sapiens, UniProt Q8IZF3) | 1.08

Series 7
SMILES: CS(=O)(=O)c1cc(C2(NC(=O)c3cncc4c3cnn4-c3ccc(F)cc3)CC2)ccn1
Read-out: cell-free assay
Method: competition with immobilised ligand
Concentration: 1 µM
target | remaining binding [%]
Cyclin-dependent kinase 4 (CDK4, Homo sapiens, UniProt P11802) | 83
RAC-alpha serine/threonine-protein kinase (AKT1, Homo sapiens, UniProt P31749) | 100
Mitogen-activated protein kinase 4 (MAPK4, Homo sapiens, UniProt P31152) | 79
Tyrosine-protein kinase ABL1, phosphorylated (ABL1, Homo sapiens, UniProt P00519) | 71
LIM domain kinase 2 (LIMK2, Homo sapiens, UniProt P53671) | 100
Cyclin-dependent kinase-like 1 (CDKL1, Homo sapiens, UniProt Q00532) | 69

Repeated from above (series 4):
target | remaining activity
Mitogen-activated protein kinase kinase kinase 5 (MAP3K5, Homo sapiens, UniProt Q99683) | 103%
Serine/threonine-protein kinase Nek1 (NEK1, Homo sapiens, UniProt Q96PY6) | 81.9%
Fibroblast growth factor receptor 1 (FGFR1, Homo sapiens, UniProt P11362) | 99.5%
